# Results collected from several papers.
# Compare with care: the assays were run in different laboratories. “And” joins repeats or separate records; there may be more than shown. ± marks the error that the study gave.
SMILES,assay,system,setting,scale,measurement,result
COc1ncnn2ccc(-c3cnc4nc(C)n(Cc5nnc([C@@H](C)F)o5)c4c3)c12,,human,"oral, dose not given, grade 5",,patients with malaise,0%
CC(C)C[C@H](NC(=O)[C@H](CCCCN)NC(=O)OCC1c2ccccc2-c2ccccc21)C(=O)N[C@H](C(=O)N[C@@H](Cc1ccccc1)C(=O)N[C@@H](Cc1ccccc1)C(=O)N[C@@H](CCCCN)C(=O)NCC(=O)N[C@@H](Cc1ccccc1)C(=O)N[C@@H](C)C(=O)N[C@@H](Cc1c[nH]c2ccccc12)C(=O)N[C@@H](CC(N)=O)C(=O)N[C@H](C(=O)N[C@H]1CSSC[C@@H](C(=O)N[C@@H](Cc2c[nH]cn2)C(=O)N[C@@H](CCCNC(=N)N)C(=O)N[C@@H](CCCNC(=N)N)C(=O)N[C@@H](C)C(=O)N[C@@H](CC(N)=O)C(N)=O)NC(=O)[C@H](C(C)C)NC(=O)[C@H](CCCNC(=N)N)NC(=O)[C@H](C(C)C)NC(=O)CNC(=O)[C@H](CC(N)=O)NC(=O)[C@H](CCCNC(=N)N)NC(=O)[C@H](Cc2ccc(O)cc2)NC(=O)[C@H](C(C)C)NC1=O)C(C)C)C(C)C,,"ICR mouse, blood","intramammary, 5 mg/kg, day 5, 3 d dosing",,haemoglobin,125 ± 3.56 g/L
c1csc(CNc2cc[nH]n2)c1,micronucleus,"CD-1 mouse Hsd:ICR(CD-1), female, bone marrow","oral, 1000 mg/kg/day, 3 days",,micronucleated PCE per 1000 PCE,0.4
CCC[C@@](N)(CO)CCc1ccc(OCCCCCC(C)C)cc1,,"dog, male hounds, plasma","oral capsule, 2.5 mg/kg, geometric mean",,Cmax,112 nM
O=C1Nc2cc3[nH]nc(-c4ccncc4)c3cc2CN1Cc1ccccc1,CTCAE v4.03,advanced solid tumour patients,"intravenous, 4.8 mg/kg",,patients with infusion reaction,0%
O=S(=O)(Nc1ccccc1)c1ccc(NC(=S)Nc2ccccc2)cc1,,"female mice, spleen","oral, 80 mg/kg daily 14 days",relative to: body weight,relative organ weight,0.42%
COc1cc2c(Oc3ccc4[nH]c(C)cc4c3F)ccnc2cc1OCC1(N)CC1,,paediatric refractory sarcoma patients,8 mg,,Myalgia incidence,50%
O=C(O)CCCOc1ccc(F)cc1-c1cc(-c2ccccc2C(F)(F)F)n(-c2ccccc2)n1,refers to: T-Cho,"Crl:CD(SD) rats, female, blood","iv, 25 µg/kg, 14 days",,blood chemistry,56.4 ± 2.7 mg/dL
Clc1nc[n]([Au][PH](c2ccccc2)(c2ccccc2)c2ccccc2)c1Cl,,NCG mice,"intraperitoneal, 10 mg/kg single dose, 24 h",,body weight,22.1 g and 22.2 g
CC1(C)[C@H](C=C(Cl)Cl)[C@H]1C(=O)OCc1cccc(Oc2ccccc2)c1,refers to: CYP2C9,"human, age 6 months, recombinant human CYP2C9",0.1 µM,,enzyme contribution to clearance,0.87%
C[C@]1(CO)Cc2ncn(-c3ccc(C#N)c(Cl)c3)c2C(=O)O1,,"healthy Japanese adults, plasma","3 mg once daily, after first dose, multiple dose",,Tmax,30 min
N=c1c2c(-c3ccccc3)c(-c3ccccc3)n(Cc3ccccc3)c2ncn1[C@H]1CC[C@H](O)CC1,,"Sprague-Dawley rat, male, plasma",2 mg/kg,,AUC(0-t)/AUC(0-inf) ratio,> 95%
CC(=O)c1c(C)c2cnc(Nc3ccc(C4CCN(CCS(C)(=O)=O)CC4)cn3)nc2n(C2CCCC2)c1=O,,"human, plasma","oral, 75 mg twice daily, day 1, single dose, together with: letrozole",,AUC(0-t),595 ng·h/mL
CCCC(CCC)NC(=O)c1ccc2c(c1)OCO2,,"Swiss albino CD-1 mice, male, bone marrow","intraperitoneal, 700 mg/kg, 24 h",,micronucleated PCEs,0.1%
COc1cccc(Oc2ccccc2NC(=O)CNC(=O)c2cccc3ccccc23)c1,,"esterase-deficient SCID mice, male, blood","oral, 100 mg/kg/day, 14 days, toxicity study",,mean corpuscular hemoglobin concentration,32.6 g/dL and 31.2 g/dL and 34.1 g/dL
CCCCCCCCCCCCCCCC(=O)N[C@@H](CCC(=O)NCCCC[C@H](NC(=O)[C@H](CC(=O)O)NC(=O)[C@H](CO)NC(=O)[C@@H](NC(=O)[C@H](Cc1ccccc1)NC(=O)[C@@H](NC(=O)CNC(=O)[C@H](CCC(N)=O)NC(=O)[C@H](CO)NC(=O)[C@@H](N)Cc1c[nH]cn1)[C@@H](C)O)[C@@H](C)O)C(=O)N[C@@H](CO)C(=O)N[C@@H](CCC(=O)O)C(=O)N[C@@H](Cc1ccc(O)cc1)C(=O)N[C@@H](CC(C)C)C(=O)N[C@@H](CC(=O)O)C(=O)N[C@@H](CO)C(=O)N[C@@H](CCC(=O)O)C(=O)N[C@@H](CCCNC(=N)N)C(=O)N[C@@H](C)C(=O)N[C@@H](CCCNC(=N)N)C(=O)N[C@@H](CC(=O)O)C(=O)N[C@@H](Cc1ccccc1)C(=O)N[C@H](C(=O)N[C@@H](C)C(=O)N[C@@H](Cc1c[nH]c2ccccc12)C(=O)N[C@@H](CC(C)C)C(=O)N[C@@H](CCC(=O)O)C(=O)N[C@@H](C)C(=O)NCC(=O)NCC(=O)O)C(C)C)C(=O)O,refers to: Dyspepsia,humans CrCl 30 to 45 mL/min,"subcutaneous, 100 µg single dose",,treatment-related adverse events,0%
Cn1c(-c2ccc(C(N)=O)cc2F)nnc1C(C)(C)Oc1c(F)cc(Cl)cc1F,,human,"oral, 60 mg, single ascending dose",,subjects with any TEAE,33.3%
O=S(=O)(CC1CS1)c1ccc(Oc2ccccc2)cc1 (racemic),,methanol,"room temperature, together with: 10 equiv iodomethane, 1.1 equiv DBU and DBU·HCl",,time to complete loss,≤ 3 h
O=c1ccc2ncc(=O)n3c2n1C[C@H]3CN1CCC(NCc2cc3c(cn2)OCCC3)CC1,,"male Sprague Dawley rats, Mdr1a/Bcrp knockout","intravenous infusion, 125 mg/kg",,renal clearance,19.6 ± 2.2 mL/min/kg
C[C@@H](NC(=O)N1C(=O)[C@H](Cc2ccnc(N)c2)[C@H]1C(=O)O)C1CCCCC1,,healthy adult Chinese volunteers,"continuous intravenous infusion, 1.0 mg/kg/h, 5-day infusion, CTCAE 5.0 grading",,incidence of AEs leading to discontinuation,0%
COc1ccc(-c2c(-c3ccc(C#N)c(F)c3)nc(N3CCC(N)CC3)n(C)c2=O)cc1F,refers to: Hyperglycemia,human patients,"oral, 60 mg, dose expansion",,serious adverse event incidence,0%
CO[C@H]1C[C@@H]2CC[C@@H](C)[C@@](O)(O2)C(=O)C(=O)N2CCCC[C@H]2C(=O)O[C@H]([C@H](C)C[C@@H]2CC[C@@H](OC(=O)NCCOCCOCCOCCOCCOCCOCCOCCOCCC(=O)N3CCc4cc(Cn5nc(-c6ccc7oc(N)nc7c6)c6c(N)ncnc65)ccc4C3)[C@H](OC)C2)C[C@@H](O)[C@H](C)/C=C(\C)[C@@H](O)[C@@H](OC)C(=O)[C@H](C)C[C@H](C)/C=C/C=C/C=C/1C,"phase 1 dose escalation, refers to: neutropenia",advanced solid tumour patients,"intravenous, 12 mg weekly, grade ≥3",,dose-reducing adverse events,0%
CC(C)CC(=O)OC[C@H]1O[C@@](C#N)(c2ccc3c(N)ncnn23)[C@H](O)[C@@H]1O,,monkey plasma,90 µM,,fraction bound,0.746
CC[C@H](C)[C@H](NC(=O)[C@H](Cc1ccccc1)NC(=O)[C@H](CCC(=O)O)NC(=O)[C@H](CCCNC(=N)N)NC(=O)[C@H](C)NC(=O)[C@H](C)NC(=O)[C@H](CCC(N)=O)NC(=O)[C@H](CCC(=O)O)NC(=O)[C@H](CCC(=O)O)NC(=O)[C@H](CC(C)C)NC(=O)[C@H](Cc1ccc(O)cc1)NC(=O)[C@H](CO)NC(=O)[C@H](CO)NC(=O)[C@@H](NC(=O)[C@H](CC(=O)O)NC(=O)[C@H](CO)NC(=O)[C@@H](NC(=O)[C@H](Cc1ccccc1)NC(=O)[C@@H](NC(=O)CNC(=O)[C@H](CCC(=O)O)NC(=O)[C@H](C)NC(=O)CCc1cnc[nH]1)[C@@H](C)O)[C@@H](C)O)C(C)C)C(=O)N[C@@H](C)C(=O)N[C@@H](Cc1c[nH]c2ccccc12)C(=O)N[C@@H](CC(C)C)C(=O)N[C@H](C(=O)N[C@@H](CCCNC(=N)N)C(=O)NCC(=O)N[C@@H](CCCNC(=N)N)C(=O)N[C@@H](CCCCNC(=O)COCCOCCNC(=O)COCCOCCNC(=O)CC[C@H](NC(=O)CCCCCCCCCCCCCCCCC(=O)O)C(=O)O)C(=O)NCC(=O)NCC(=O)N[C@@H](CO)C(=O)N[C@@H](CCSC)C(=O)N[C@H](C(=O)N[C@@H](CCCCNc1c(NCCCCCN(O)C(=O)CCC(=O)NCCCCCN(O)C(=O)CCC(=O)NCCCCCN(O)C(C)=O)c(=O)c1=O)C(=O)O)C(C)C)C(C)C [zirconium-89 labelled],ex vivo gamma counting,"male Sprague-Dawley rats, brain","intravenous, 1 nmol, 72 h, mean of 3 animals",,tissue uptake,0.0037 %ID/g
Cc1cc(C)c(CNC(=O)c2cc(Cl)c3c(c2C)O[C@@](C)([C@H]2CC[C@H](N(C)C)CC2)O3)c(=O)[nH]1,,"human, relapsed/refractory NHL","concentration not given, all TEAEs, grade 5",,Hypophosphataemia incidence,0%
C=CCNc1c(O)cc2c(O)c1C[C@@H](C)C[C@H](OC)[C@H](O)[C@@H](C)/C=C(\C)[C@H](OC(N)=O)[C@@H](OC)/C=C\C=C(/C)C(=O)N2,,"unresectable or metastatic STS, GIST, other","intravenous, 500 mg/m^2",,patients with infusion site pain,43%
O=C(Nc1ccccc1)C1CCN(C(=O)Oc2cccnc2)CC1,adverse event reporting,healthy women,"oral, 100 mg, 9 days",,subjects with nervous system disorders,92.3%
CC(C)n1c(C2CCNCC2)nc2c([N+](=O)[O-])c(Br)c(Br)cc21,refers to: Neutropenia,AML patients,"dose not given, all doses",,related grade ≥3 adverse events,8%
CN[C@H](CC(C)C)C(=O)N[C@H]1C(=O)N[C@@H](CC(N)=O)C(=O)N[C@H]2C(=O)N[C@H]3C(=O)N[C@H](C(=O)N[C@H](C(=O)O)c4cc(O)cc(O)c4-c4cc3ccc4O)[C@H](O)c3ccc(c(Cl)c3)Oc3cc2cc(c3O[C@@H]2O[C@H](CO)[C@@H](O)[C@H](O)[C@H]2O[C@H]2C[C@](C)(N)[C@H](O)[C@H](C)O2)Oc2ccc(cc2Cl)[C@H]1O,population PK model,human neonates,,,"clearance, typical value",0.095 L/h
COc1ncccc1-c1cnn2ccc(N3CCN(C(=O)OC(C)C)CC3)nc12,,"mouse formalin model, plasma","oral, 10 mg/kg, 60 min",,free concentration,90 nM
CC(C)[C@@H]1NC(=O)CNC(=O)[C@H](CC(N)=O)NC(=O)[C@H](CCCNC(=N)N)NC(=O)[C@H](Cc2ccc(O)cc2)NC(=O)[C@H](C(C)C)NC(=O)[C@@H](NC(=O)[C@@H](NC(=O)[C@H](CC(N)=O)NC(=O)[C@H](Cc2c[nH]c3ccccc23)NC(=O)[C@H](C)NC(=O)[C@H](Cc2ccccc2)NC(=O)CN)C(C)C)CSSC[C@@H](C(=O)N[C@@H](Cc2cnc[nH]2)C(=O)N[C@@H](CCCNC(=N)N)C(=O)N[C@@H](CCCNC(=N)N)C(=O)N[C@@H](C)C(=O)N[C@@H](CC(N)=O)C(N)=O)NC(=O)[C@H](C(C)C)NC(=O)[C@H](CCCNC(=N)N)NC1=O,,"ICR mouse, blood","intramammary, 10 mg/kg, day 5, 3 d dosing",,basophils,1.53 ± 0.15%
O=[N+]([O-])c1ccc2c(c1)S(=O)(=O)C=C2,,"male C57BL/6 mice, blood","intraperitoneal, 10 mg/kg, day 8, group average",,mean platelet volume,5.37 fL
N[C@@H]1c2ccccc2OC12CCN(c1cnc3c(N4CCCc5ncccc54)n[nH]c3n1)CC2,,patients advanced metastatic solid tumours,"oral, 60 mg once daily, RP2D expansion phase",,incidence of any TEAE,100%
CN1CC[C@@H](c2c(O)cc(O)c3c(=O)cc(-c4ccc(C(F)(F)F)cc4Cl)oc23)[C@@H]1CO,refers to: Constipation,relapsed or refractory haematological malignancies,"oral, dose not given, all grades",,adverse event incidence,17% and 17.5%
C[C@@H]1OC(=O)NN=C1c1ccc(-c2ccc(F)cc2)c(C(F)(F)F)c1,"phase I trial, refers to: Dyspnoea all grades",human patients,5 mg loading then 0.25 mg daily,,patients with adverse event,0%
CCN1[C@@H](C(=O)NC23CCC(C(=O)O)(CC2)CC3)[C@H](c2cccc(Cl)c2F)[C@]2(C(=O)Nc3cc(Cl)ccc32)C12CCCCC2,,patients with advanced solid tumours,"oral, 150 mg",,grade ≥3 Lymphocytopenia incidence,50%
N#C/N=C1\SCCN1Cc1ccc(Cl)nc1,,soil,"56 days, nominal 0.12",,recovery,0%
COc1ccc([C@@H]2CC(=O)c3c(O)cc(O)cc3O2)cc1O,,"male Sprague-Dawley rat, lean","oral, 100 mg/kg of neohesperidin, 24 to 36 h",,faecal excreted amount,202 ± 161 ng
